# Measured values of several laboratories.
# Every numbered part comes from another study and shows a few of its results, in no order.

# Study 1
# Target: POU, POU domain (Salpingoeca helianthica)
# Method: Spec-seq
# Molecule type: double-stranded DNA, one strand shown
# Sample: in vitro
# Tested at: not given
# Setting: whole probe, mean of replicates
# Baseline: not given
# Reading: lower = stronger binding
# Target sequence (chain): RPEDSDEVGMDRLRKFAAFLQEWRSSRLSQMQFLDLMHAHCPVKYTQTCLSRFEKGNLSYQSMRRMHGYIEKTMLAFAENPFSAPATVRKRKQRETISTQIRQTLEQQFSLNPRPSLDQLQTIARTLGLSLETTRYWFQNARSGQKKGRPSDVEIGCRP
Oligonucleotide,relative binding energy
GAGTCGTCTCGTCAGCACATAACGATCCGTAGAGCACTCAGGTC,-0.304 ln ratio
GAGTCGTCTCGTCAGCACATTTACATCCGTAGAGCACTCAGGTC,0.283 ln ratio
GAGTCGTCTCGTCAGCACGGGTTAATCCGTAGAGCACTCAGGTC,-0.00767 ln ratio

# Study 2
# Target: Histone acetyltransferase KAT6A, winged helix 1, GST fusion (KAT6A, Homo sapiens, UniProt Q92794, residues 1-85)
# Method: protein binding microarray
# Molecule type: double-stranded DNA, one strand shown
# Sample: in vitro
# Tested at: not given
# Setting: 8-mer, flanks averaged, mean of 2 arrays, mostly near background
# Baseline: not given
# Reading: higher = stronger binding
# Residues (chain): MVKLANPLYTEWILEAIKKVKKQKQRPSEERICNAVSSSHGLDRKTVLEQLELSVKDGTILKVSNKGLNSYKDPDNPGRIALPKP
Oligonucleotide,E-score
CCCTGCAA,-0.0983
CTATGCCC,-0.0356
AAAGAGAT,-0.129
CGGTGGAG,0.161
CCGATGAA,0.0221

# Study 3
# Target: Sal-like protein 4, full length isoform A (SALL4, Homo sapiens, UniProt Q9UJQ4, residues 1-1053)
# UniProt Q9UJQ4, sequence (whole entry, looked up): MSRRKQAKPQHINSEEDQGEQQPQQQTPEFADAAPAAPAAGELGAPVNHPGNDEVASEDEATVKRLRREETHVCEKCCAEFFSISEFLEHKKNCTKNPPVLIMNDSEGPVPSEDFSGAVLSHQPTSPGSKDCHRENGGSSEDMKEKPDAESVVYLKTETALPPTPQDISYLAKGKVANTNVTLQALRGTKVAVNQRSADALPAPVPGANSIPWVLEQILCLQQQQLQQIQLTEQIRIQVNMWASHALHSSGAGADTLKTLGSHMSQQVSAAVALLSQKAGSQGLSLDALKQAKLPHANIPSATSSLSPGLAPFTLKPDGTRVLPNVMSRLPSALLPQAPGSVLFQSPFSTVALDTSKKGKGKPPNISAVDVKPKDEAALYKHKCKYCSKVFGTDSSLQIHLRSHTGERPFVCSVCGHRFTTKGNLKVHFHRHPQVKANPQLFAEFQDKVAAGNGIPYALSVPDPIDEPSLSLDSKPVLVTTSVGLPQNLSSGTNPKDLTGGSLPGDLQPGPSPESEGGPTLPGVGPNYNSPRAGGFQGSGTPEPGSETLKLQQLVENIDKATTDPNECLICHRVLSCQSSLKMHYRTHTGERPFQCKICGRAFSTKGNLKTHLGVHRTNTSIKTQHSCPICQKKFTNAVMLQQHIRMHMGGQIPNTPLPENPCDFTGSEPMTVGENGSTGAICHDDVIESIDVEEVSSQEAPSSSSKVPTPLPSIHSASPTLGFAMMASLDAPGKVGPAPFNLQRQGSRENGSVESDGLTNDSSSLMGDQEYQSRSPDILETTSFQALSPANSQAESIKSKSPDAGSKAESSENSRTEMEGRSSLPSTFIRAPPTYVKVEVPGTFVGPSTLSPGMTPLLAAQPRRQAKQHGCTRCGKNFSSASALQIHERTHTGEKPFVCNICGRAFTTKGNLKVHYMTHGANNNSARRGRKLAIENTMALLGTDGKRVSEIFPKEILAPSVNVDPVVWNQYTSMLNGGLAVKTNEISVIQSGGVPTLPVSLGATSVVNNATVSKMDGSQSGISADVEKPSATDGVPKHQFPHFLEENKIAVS
# Method: universal PBM
# Molecule type: double-stranded DNA, one strand shown
# Sample: in vitro
# Tested at: 600 nM
# Setting: 8-mer, flanks averaged, mean of replicates
# Reading: higher = stronger binding
Oligonucleotide,E-score
GAGTAGAC,-0.131
CGAGGGCG,-0.242
CACGGGTA,-0.183
AGACTCAA,0.0541
TCGCCGAA,0.00187

# Single results of other studies
Substance,target,test,system,setting,scale,quantity,result
"PhoQ, residues 284 288 289 292 302 303 DDMDFR","PhoP, residues 12 14 15 18 19 NHFRA (Escherichia coli, UniProt P23836)","Sort-seq, item: YFP reporter",E. coli,"PhoQ-PhoP variant library, with: 10 µM Mg2+","baseline: high Mg2+ state, higher = stronger signaling",fold induction,1.97

# Excerpt of the above (study 1):
Oligonucleotide,relative binding energy
GAGTCGTCTCGTCAGCACATTTACATCCGTAGAGCACTCAGGTC,0.283 ln ratio
